Assay results collected from several papers.
A part holds a random share of what one study measured. Changes are numbered by the printed parent chain.

Series 1
Target: BATF, bZIP domain (human)
Method: DHFR protein complementation
Matrix: yeast
Setting: single substitutions, most at no-binding floor
Baseline: wild-type JUN-FOS pair
Direction: higher = stronger binding
Starting sequence: JUN, bZIP domain (human); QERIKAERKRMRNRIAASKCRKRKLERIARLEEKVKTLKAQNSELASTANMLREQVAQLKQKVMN; partner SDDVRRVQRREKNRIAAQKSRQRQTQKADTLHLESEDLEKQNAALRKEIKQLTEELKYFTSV
The binding fitness of `N42V` is reported as -0.901 natural log.
The binding fitness of `V56F` is reported as -0.675 natural log.
The binding fitness of `M51Q` is reported as 0.0477 natural log.
The binding fitness of `L45V` is reported as -1.23 natural log.
With `E44L` the binding fitness was -0.123 natural log.
For `L31S`, the binding fitness was -0.222 natural log.
With `T37M` the binding fitness was 0.15 natural log.
For `I28S`, the binding fitness was -0.07 natural log.
`V35K` gave a binding fitness of -0.291 natural log.
With `A29Y` the binding fitness was -0.199 natural log.
`L52E` has a binding fitness of -1.46 natural log.
`L45N` has a binding fitness of -1.2 natural log.
For `K36A`, the binding fitness was 0.0756 natural log.
The binding fitness of `N42C` is reported as -0.494 natural log.
The binding fitness of `Q55L` is reported as -0.272 natural log.
With `E44Y` the binding fitness was -0.152 natural log.
With `K36G` the binding fitness was -0.0863 natural log.
The binding fitness of `L38C` is reported as -0.711 natural log.
For `L59F`, the binding fitness was -0.128 natural log.
With `M51W` the binding fitness was -0.08 natural log.
With `V35S` the binding fitness was -0.574 natural log.
With `A40I` the binding fitness was -0.0293 natural log.
The binding fitness of `S43H` is reported as 0.00572 natural log.
For `L52Q`, the binding fitness was -0.8 natural log.
The binding fitness of `V35P` is reported as -1.2 natural log.

Series 2
Target: CCNB1, cyclin fold, Cln2 fusion (human)
Method: yeast growth competition, sequencing
Matrix: yeast
Setting: weak parent motif
Baseline: not given
Direction: higher = stronger binding
Starting sequence: REV3L docking peptide (human); PPVIIKYIIINRF
For `PPVIIKYIIINAF [R12A]`, “normalised enrichment score” read 0.539.
Under “normalised enrichment score”, `PPVIIKYIIANRF [I10A]` is recorded as 0.353.
Under “normalised enrichment score”, `PPVIIKYIIIARF [N11A]` is recorded as 0.614.
For `PPVIIKYIIINRA [F13A]`, “normalised enrichment score” read 0.839.
Under “normalised enrichment score”, `PAVIIKYIIINRF [P2A]` is recorded as 0.313.
`PPVIIKYIAINRF [I9A]`: “normalised enrichment score” -0.073.
Under “normalised enrichment score”, `APVIIKYIIINRF [P1A]` is recorded as 0.415.

Series 3
Sequence: B1 (MDM4 RING domain)
Method: yeast two-hybrid
Matrix: yeast
Setting: mostly zero background
Baseline: not given
Direction: higher = stronger interaction
B1: MDM4 RING domain (UniProt O15151); chain MEDCQNLLKPCSLCEKRPRDGNIIHGRTGHLVTCFHCARRLKKAGASCPICKKEIQLVIKVF
It gave 0 for “lacZ reporter activity” (UBE2G1 UBC core domain (UniProt P62253)).
For UBE2Q1 UBC core domain (UniProt Q7Z7E8): “lacZ reporter activity” read 0.
UBE2M UBC core domain (UniProt P61081) — “lacZ reporter activity”: 0.
UBE2E3 UBC core domain (UniProt Q969T4) — “lacZ reporter activity”: 0.
The “lacZ reporter activity” was 0 (UBE2I UBC core domain (UniProt P63279)).
BIRC6 UBC core domain (UniProt Q9NR09) — “lacZ reporter activity”: 0.
The “lacZ reporter activity” was 0 (UBE2D1 UBC core domain (UniProt P51668)).
It gave 0 for “lacZ reporter activity” (UBE2S UBC core domain (UniProt Q16763)).

Series 4
Target: ABI1, truncated, D143A, DHFR fusion (Arabidopsis thaliana, UniProt P49597)
Method: DHFR PCA, dose-response
Matrix: yeast
Setting: Hill fit, not affinity
Added: (+)-ABA, dose series
Direction: lower = more sensitive
Starting sequence: PYL1, truncated, DHFR fusion (Arabidopsis thaliana, UniProt Q8VZS8); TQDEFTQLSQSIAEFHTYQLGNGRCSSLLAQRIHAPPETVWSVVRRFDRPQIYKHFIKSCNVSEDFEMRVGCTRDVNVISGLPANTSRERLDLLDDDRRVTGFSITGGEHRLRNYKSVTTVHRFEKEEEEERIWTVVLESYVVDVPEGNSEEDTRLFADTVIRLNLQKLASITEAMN
For `F103S`, the ABA EC50 was 1840 µM.
For `N85I`, the ABA EC50 was 30.8 µM.
For `I133E`, the ABA EC50 was 0.757 µM.
For `S140K`, the ABA EC50 was 1650 µM.
For `N177E`, the ABA EC50 was 1.21 µM.
`E109D` gave an ABA EC50 of 0.0936 µM.
`H55P` has an ABA EC50 of 0.0535 µM.
With `K54H` the ABA EC50 was 2290 µM.
`N85V` gave an ABA EC50 of 21 µM.
`E130P` gave an ABA EC50 of 1.23 µM.

A few entries again (series 2):
`PPVIIKYIAINRF [I9A]`: “normalised enrichment score” -0.073.
Under “normalised enrichment score”, `APVIIKYIIINRF [P1A]` is recorded as 0.415.
For `PPVIIKYIIINAF [R12A]`, “normalised enrichment score” read 0.539.
Under “normalised enrichment score”, `PPVIIKYIIIARF [N11A]` is recorded as 0.614.
Under “normalised enrichment score”, `PAVIIKYIIINRF [P2A]` is recorded as 0.313.
Under “normalised enrichment score”, `PPVIIKYIIANRF [I10A]` is recorded as 0.353.
For `PPVIIKYIIINRA [F13A]`, “normalised enrichment score” read 0.839.
